Published values collected from several papers.
Every numbered part comes from another study and shows a few of its results, in no order.

Sample 1 — technique: protein-binding microarray; form: double-stranded DNA, one strand shown; medium: in vitro; concentration: 2540 nM top; setting: 60-bp whole probe; added: salmon DNA 0.4 mg/ml; relative to: random background probes; reading: higher = stronger binding; constant ends, left off below: GCCTAGCAC … GTCTTGATTCGCTTGACGCTGCTG
Target: Interferon regulatory factor 3, full length, phosphomimetic (IRF3, Homo sapiens, UniProt Q14653, residues 1-427, S386D/S396D/S398D/S402D/T404D/S405D)
Residues (chain): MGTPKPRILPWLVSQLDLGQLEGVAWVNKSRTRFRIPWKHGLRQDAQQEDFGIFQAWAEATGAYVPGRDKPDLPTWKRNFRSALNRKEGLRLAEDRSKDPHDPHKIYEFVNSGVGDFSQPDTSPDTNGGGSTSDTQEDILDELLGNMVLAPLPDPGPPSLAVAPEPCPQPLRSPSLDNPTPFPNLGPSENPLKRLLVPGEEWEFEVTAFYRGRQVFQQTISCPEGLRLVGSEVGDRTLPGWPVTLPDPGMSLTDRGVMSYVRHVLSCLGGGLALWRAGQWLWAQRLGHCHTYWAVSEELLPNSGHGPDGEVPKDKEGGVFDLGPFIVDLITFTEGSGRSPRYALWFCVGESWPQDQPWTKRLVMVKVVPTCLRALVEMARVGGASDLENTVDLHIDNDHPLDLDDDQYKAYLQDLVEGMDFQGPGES
| Strand | fitted relative affinity [z-score] |
| --- | --- |
| AACGGTATCGGACTGGGGACGTGCTAG | 1.41 |
| TTAGGACTGGGGACTGGTTTAGTGCTA | -0.905 |
| TTAGCTATCGGTCTCGGTTAGTGCTAG | 1.55 |
| TTAGGTTTAGGTTTCGGTTAGTGCTAG | 5.18 |
| TCAACACTAGTTTTTACACTGTGCTAG | 0.0413 |
| TCATTTTCCTACATCAGACTGTGCTAG | 3.11 |
| AGCAGTTTCTCAACCACTTTGTGCTAG | 2.17 |
| GACGATTTCGGGTTTCGAAACGTGCTA | 3.56 |
| CCCCTCTTCTGGATCTCAGAGTGCTAG | 1.64 |
| TTAGGACTGGGTCTCGGTTCGTGCTAG | -0.467 |
| TTTTTTTTTTTTTTTTTACTGTGCTAG | 1.48 |
| TCACATCTGTCATGTTTGACTGTGCTA | 0.513 |
| AGAAATTTCTTTCTAATTCAGTGCTAG | 1.96 |
| TCATTTTTCCCTCTGGAACTGTGCTAG | 2.62 |
| AATGGAACAAATATGTTTATGTGCTAG | 0.392 |
| TATGTCTGGCCCAAGCAGCCGTGCTAG | -0.858 |

Sample 2 — technique: protein binding microarray; form: double-stranded DNA, one strand shown; medium: in vitro; concentration: not given; relative to: not given; reading: higher = stronger binding
Target: Histone acetyltransferase KAT6A, both winged helices, GST fusion (KAT6A, Homo sapiens, UniProt Q92794, residues 1-181)
Setting: 8-mer, flanks averaged, mean of 2 arrays, mostly near background
Residues (chain): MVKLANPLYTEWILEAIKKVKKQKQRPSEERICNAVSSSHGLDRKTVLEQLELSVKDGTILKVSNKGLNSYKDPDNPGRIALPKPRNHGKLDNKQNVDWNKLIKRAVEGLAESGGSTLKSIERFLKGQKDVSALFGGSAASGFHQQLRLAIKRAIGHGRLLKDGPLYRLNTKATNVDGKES
| Strand | E-score |
| --- | --- |
| ACACTAGG | -0.0643 |
| CCGTTTAA | 0.209 |
| TCGTAACA | -0.0067 |
| CTAGGTGC | -0.0374 |
| ATCTTTCC | -0.0105 |
| CAACTTGC | -0.0231 |
| GATAGTGA | 0.0199 |
| AGTTGTCC | 0.0464 |
| AGCTGCCT | -0.179 |
| GTTCTAAA | -0.0173 |
| TCTATTAA | -0.047 |
| GGGCAGAC | 0.0774 |
| ATAGTCAT | -0.152 |
| CAAACCCG | 0.221 |
| CATGGTGG | -0.0536 |
| CTCTATTA | -0.287 |
| AGAGTCCT | -0.115 |
| CAGTGGAC | -0.153 |
| AACACTTG | -0.125 |
| TAGGCGCA | 0.0316 |
| TCCAGTCA | -0.0253 |
| CGTCAGAC | 0.0134 |
| ACCAACCA | -0.115 |
| ACTAGTTG | -0.244 |
| CCCGGTCC | 0.175 |

Sample 3 — technique: RNA Bind-n-Seq; form: RNA; medium: in vitro; concentration: not given; relative to: input RNA pool; reading: higher = stronger binding
Target: RING finger protein unkempt homolog, zinc fingers 1-6, GST-SBP tag (UNK, Homo sapiens, UniProt Q9C0B0, residues 30-357)
Chain of UniProt Q9C0B0 (30-357, looked up): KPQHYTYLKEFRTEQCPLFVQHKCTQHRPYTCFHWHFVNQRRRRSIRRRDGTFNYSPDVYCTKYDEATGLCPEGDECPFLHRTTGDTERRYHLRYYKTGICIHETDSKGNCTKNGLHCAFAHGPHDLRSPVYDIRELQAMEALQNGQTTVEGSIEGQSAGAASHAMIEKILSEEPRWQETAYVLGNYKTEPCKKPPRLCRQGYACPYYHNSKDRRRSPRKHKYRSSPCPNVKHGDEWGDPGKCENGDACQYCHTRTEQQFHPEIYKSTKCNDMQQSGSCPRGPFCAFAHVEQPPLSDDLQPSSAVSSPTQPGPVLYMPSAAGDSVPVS
Setting: RNA with constant flanks, human-mouse chimeric sites, ends assumed
| Strand | bound/input enrichment [ratio] |
| --- | --- |
| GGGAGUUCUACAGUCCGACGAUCUACUACUAUGAUGGUGAUAUUGGCAAUUAUUAUUAUGGACAGGGUCAUCCCAUGAAGCCUCAUAGAAUCCGCAUGACUCAUAACUUGCUGCUAAAUUAUGGUUUAUACCGAAAAAUGGAACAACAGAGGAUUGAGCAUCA | 0.319 |
| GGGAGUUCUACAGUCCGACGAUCAUGGUUGUGUCUCUUGAGAUCUAAAAACAAGAUGACUUUUCCUGGCACAUAUUCCAAAGCAAAGACUUUGUUGCCUGCUGCUUAUUGUCUAAUUUACAGGGAUAUUUAAUUUUGUCAGGUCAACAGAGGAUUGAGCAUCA | 0.307 |
| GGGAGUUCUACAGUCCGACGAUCGUGACUGGUGUUAAGAUUUCCCCUCAGCAAAGAAGUGUAGCAGUGACCAUAAUUCCAUCUGUGGUGAGUGCCAGUCAGAUUGUGGAGCUGGUCCCAGACCUCAGUUUAGACAUGGGAACUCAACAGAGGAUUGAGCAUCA | 0.284 |
| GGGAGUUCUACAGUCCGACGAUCUAUAUCACCAAUGUCCUACAAAAUCCUGAUUUGGCUCUGAGAAUGGCUGUGCGGAACAACUUAGCUGGUGCUGAAGAACUCUUUGCCCGGAAAUUUAAUGCUCUUUUCGCCCAGGGAAACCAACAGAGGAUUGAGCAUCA | 0.426 |
| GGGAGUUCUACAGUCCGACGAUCGGAAGUACAAUGAUGGAGAUUGAUGGUGACAAAGGCAAGCAGGGCGGGCCCACCUACUACAUAGACACUAAUGCUCUCCGCGUGCCCAGGGAGAAUAUGGAGGCCAUCUCACCACUCAAGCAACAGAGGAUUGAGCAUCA | 1.13 |
| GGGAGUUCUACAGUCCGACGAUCCAGUCCCCGUGUCCCAGUGCAGGACGAUGUGAACAAAAACUCAAAGCGGACCCUCUAUUGUAGUUCUUGAUUCUCGAAAUGUGCUAUUGUUUUUAAACUUUUUUUUUAAAAGAAAAGAGACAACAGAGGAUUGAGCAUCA | 0.31 |
| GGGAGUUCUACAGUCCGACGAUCACUCAGAGAUCCACCUCCCAAAGUGCUCUGGAGCUCUGUGUGGCCACCACACCUAACUUGAUGGAUAUAUAUUUUUUUUAAUAUGAAUCUUCCUGUUCGUCCAGGGAAGAAAGAUUUGUUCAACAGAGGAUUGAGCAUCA | 1.45 |
| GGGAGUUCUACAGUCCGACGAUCGGGACUGAUUCAUUCCAAGGACAGGCCACCCCAUUUGAUGCCUGGACUGAUGACAGUAUGGAAGGGCCUAGUCAAAAUGUUGAAGCUGAGUCAAUUCAGGAUGCCAUGCAUAUGGCAGAGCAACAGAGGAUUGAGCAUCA | 0.297 |
| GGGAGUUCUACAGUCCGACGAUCUCUGGUCACACUCGUGUGUAUGGUGUUUGCUUUGUUGACACUUCACUGGGCAAGUUUUUCAUCGGCCAGUUUUCGGAUGACCGCCACUGUUCCAGAUUUAGGACGCUAGUGGCACACUAUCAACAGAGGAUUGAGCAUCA | 0.199 |
| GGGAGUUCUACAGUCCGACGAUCUAAAUUAGGGCUGCCGUCCGUUCUCACUCCCUGGGCUGCGGAAAGCCAGAAGAUUUUAUCUAGCUUAUACAAGGCUGCUGGUGUUCCCUCUUUUUUUCCCUCUCUCUGUUUUUGGCUGCACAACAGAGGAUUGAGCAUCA | 0.823 |
| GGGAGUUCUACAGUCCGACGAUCGAUAAGAAAAACUUGUUGGAGACCCGCUUGCAUGUCACUGGUAGAGACCUGAGGUGUAAAAUAGCUGAAACUUUCGGAUUUCAAGAAAAUUACAUCAAGAUCGUAAUAAAUAAGAAACAGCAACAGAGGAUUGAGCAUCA | 0.351 |

Sample 4 — technique: RNA Bind-n-Seq; form: RNA; medium: in vitro; concentration: 365 nM; relative to: no-protein control; reading: higher = stronger binding
Target: RNA binding protein fox-1 homolog 2, RRM domain, GST-SBP tag (RBFOX2, Homo sapiens, UniProt O43251-10, residues 100-194)
Setting: natural RNA segment, single round, ends assumed
Construct (chain): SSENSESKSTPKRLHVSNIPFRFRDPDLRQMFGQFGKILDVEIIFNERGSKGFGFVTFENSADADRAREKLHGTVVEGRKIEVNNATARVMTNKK
| Strand | RBNS enrichment (R) |
| --- | --- |
| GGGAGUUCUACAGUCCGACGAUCUUAAUUCCUAUCUGCUUCCUAGCUGAUAAAGCUUAGAAAAGGCAGUUAUUCCUUCUUUCCAACCAGCUUUGCUCGAGUUAGAAUUUUGUUAUUUUCAAAUAAAAAAUAGUUGGAAUUCUCGGGUGCCAA | 0.362 |
| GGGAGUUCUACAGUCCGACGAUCAGUUCCAGCUACAACUAAAUACAACGUCCUUUGCACCCCUAGAAUGUCAUUUUGCCCUCAAUCUUGGAAUUUCUCCCAGGGCCCUUGUAGUCUUGUGCUGUCUCCUGUCCUGGAAUUCUCGGGUGCCAA | 1.15 |
| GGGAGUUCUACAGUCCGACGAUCUCUGGAAAUCUAACCAAAGAGUCCCCAGACACCAACGGACCAAAGCUAACCGAGGAAGGAGAUGCCCUGAAAGAAGAAAUGAACAAGGCCCAGACAGAAGAGGACGACCUUGGAAUUCUCGGGUGCCAA | 0.329 |
| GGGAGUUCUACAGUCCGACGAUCAAGUAGAGUUUAGUAGGUUAUUACAAAAAGGGCAAGAGUUGUUUUGGUUUUGUUUCUUUCAAAAUAAUUUUUUUUCAAAAGAAUAACAAGGGUUAGGCAAAUGGGGGACCUGGAAUUCUCGGGUGCCAA | 1.43 |
| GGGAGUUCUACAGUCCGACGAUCCCUGGCUAUUUGGGCAAUUGAAUCAUCAUGGACUGUAUAAUGCAAUCAGAUUAUUUUGUUUCUAGACAUCCUUGAAUUACACCAAAGAACAUGAAAUUUAGUUGUGGUUAUGGAAUUCUCGGGUGCCAA | 0.659 |
| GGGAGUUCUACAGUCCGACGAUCCCACCUUAAUCAGCAUCACUUGCAGAGACUGACCCUAAACAACACAGCAGGGGCAGGGAACGGGUAGGACUUGACCCUCUUGAAGGCAGCCCAGGAUGGGAGUAGGGUAUUGGAAUUCUCGGGUGCCAA | 1.22 |
| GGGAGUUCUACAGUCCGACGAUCUGACUGCCAUGUGUUCAUCAUCUUAAGUAUUGUAAGCUGCUAUGUAUGGAUUUAAACCGUAAUCAUAUCUUUUUCCUAUCUAUCUGAGGCACUGGUGGAAUAAAAAACCUUGGAAUUCUCGGGUGCCAA | 0.357 |
| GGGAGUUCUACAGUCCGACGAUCUGGAGUAUAUUUCCACCUAUGAUGACAUAGCUAGACCUCCUUUUACCAACAAAACUCCAGGUUGAGACUCUCUAGUCUUGCCAGGGCCCACUGAGAGCUCCCAGACUCAGUGGAAUUCUCGGGUGCCAA | 0.249 |
| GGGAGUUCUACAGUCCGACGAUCACCAUAAUCCAGUGGGGGUGACUGGGUGCACACCUGCCCAGGUGAACACAGCGGCUGCCAGUCUCCUGGUCCCGAGAGGAGGUGGGGCCUGGCCCUGGCUCCCUCCAACCUGGAAUUCUCGGGUGCCAA | 0.171 |
| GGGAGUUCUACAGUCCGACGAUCUAAGCAGGUCAAGCAUUUUGAAUUUCAAUGUAGGCCUUCAGGAUCUUCUCACAUGAGGUCAACUGCUAAUGCAAUCUCUACACUUCAAAAAGCACUGAUCGUUCUCCAGUUGGAAUUCUCGGGUGCCAA | 0.266 |
| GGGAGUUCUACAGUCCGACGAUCCCAGUAAAAUGUCUAUGACUCUUACAUGUUGUCAUUCUUCUUCUUUUGGCUUUGCUGCUCUGAUGAAGUUGCUCAGAUGAGCUGUGGCUGCCAGAGAACAAGGUGUAUGUUGGAAUUCUCGGGUGCCAA | 0.273 |
| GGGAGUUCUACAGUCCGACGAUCGGCUCAUUUGAAGAUUAAUGUUCCAUGCCUUUGUGGUCAAAGGGUCAGCACUUAACACAGGAAAAAACUAGGUGUUGUUUUGUUUUGUUAUUUUGGACAACAUAAAAUUCUGGAAUUCUCGGGUGCCAA | 0.935 |
